# Assay results collected from several papers.
# Each numbered part is a random draw from the data of one study; scales do not carry over between parts.

# Study 1 — method: protein binding microarray; molecule type: double-stranded DNA, one strand shown; sample: in vitro; tested at: not given; baseline: not given; direction: higher = stronger binding
# Target: Histone acetyltransferase KAT6A, winged helix 1, GST fusion (KAT6A, Homo sapiens, UniProt Q92794, residues 1-85)
# Setting: 8-mer, flanks averaged, mean of 2 arrays, mostly near background
# Target sequence (chain): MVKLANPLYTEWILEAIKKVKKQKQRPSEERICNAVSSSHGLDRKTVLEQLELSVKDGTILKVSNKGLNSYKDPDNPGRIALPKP
Sequence,E-score
ACCGAAAC,0.055
AAGTCCAC,-0.299
ACAAGTTC,-0.111
AATAGACT,-0.216
GGCTCCTA,-0.0366
ACCCATAA,-0.0975
TAGATTAA,-0.0114
TGTTTCAA,-0.119
CCATAAAA,-0.146
CGAATGAC,-0.0449
CTTATTGA,-0.26
AGCGCGAG,0.297
AAGGATCA,-0.207
TCCTTGCA,-0.00298
TCGCGACA,0.124
GGAGAGCC,0.0781
AAAGCCAC,-0.253
CATGACAG,-0.0875
ATAGTCCG,-0.0247
AGCGCATA,0.24
CGTGCAAC,-0.0144
GGCGGGTA,0.368
CGTGCCCA,0.135
GGATGGCA,0.039

# Study 2 — method: protein-binding microarray; molecule type: double-stranded DNA, one strand shown; sample: in vitro; tested at: 250 nM; setting: 60-bp whole probe; together with: salmon DNA 0.4 mg/ml; baseline: random background probes; direction: higher = stronger binding; shared flanks, not repeated: GCCTAGCAC … GTCTTGATTCGCTTGACGCTGCTG
# Target: Interferon regulatory factor 5, full length, phosphomimetic (IRF5, Homo sapiens, UniProt Q13568-2, residues 1-514, K96S/S451D/S453D/S456D/S462D)
Sequence,log fluorescence [z-score]
GACGGTATCGGGTATCGCGACGTGCTA,2.98
TCACATCTCACTCTAATACTGTGCTAG,0.388
TCATTATTTATTTTTACACTGTGCTAG,1.28
CCGAGAAACAGTAACCCTCTGTGCTAG,0.0165
ATTTATTTACTCTCTACATGGGTGCTA,0.916
TTAGAACTGGGGTATGGATTAGTGCTA,0.00956
TCATTTCTTTACTTCACACTGTGCTAG,1.31
GACGGTATCGGTATCGGGTCGTGCTAG,7.32
GACGGTATCGGTATAGGGACGTGCTAG,6.03
TTGGGACTGGACACTGGGTTAGTGCTA,-0.504
TCATCTCTCATGTTACAACTGTGCTAG,0.692
GACGATAACGGGTATCGAGACGTGCTA,1.24
TTTTTTTTTTTTTTTTTGGAGTGCTAG,1.28
TGGACTGTGTGTTTGAGTCTGTGCTAG,-0.509

# Study 3 — method: RNA Bind-n-Seq; molecule type: RNA; sample: in vitro; tested at: 20 nM; setting: 6-mer, flanks averaged, single round; together with: 150 mM KCl; baseline: input library; direction: higher = stronger binding
# Target: TAR DNA-binding protein 43, full length, His tag (TARDBP, Homo sapiens, UniProt Q13148, residues 1-414)
Sequence,6-mer enrichment (R)
CCGCCU,0.633
CGGGUG,3.9
GCAUCG,0.918
GCGUGU,1.59
CCCCGG,0.821
ACUGCC,0.65
CUUGGG,1.78
CAACAC,0.633
UCUCUU,0.58
UAUAUG,0.713
GAGCGG,3.62
CGACAU,0.623
UGAAUC,0.629
UGGCAA,0.869
CACUGU,0.648
GGCGAG,3.8
GAAGCU,0.779
CCAAUA,0.65
ACUUAA,0.577

# Study 4 — method: competition protein-binding microarray; molecule type: double-stranded DNA, one strand shown; sample: in vitro; tested at: 2 µM; together with: Pho4 competitor, 0.05 µM; direction: higher = stronger binding; shared flanks, not repeated: … GTCTTGATTCGCTTGACGCTGCTG
# Target: Centromere-binding protein 1, full length, His-tagged (CBF1, Saccharomyces cerevisiae, UniProt P17106, residues 1-351)
# UniProt P17106, sequence (whole entry, looked up): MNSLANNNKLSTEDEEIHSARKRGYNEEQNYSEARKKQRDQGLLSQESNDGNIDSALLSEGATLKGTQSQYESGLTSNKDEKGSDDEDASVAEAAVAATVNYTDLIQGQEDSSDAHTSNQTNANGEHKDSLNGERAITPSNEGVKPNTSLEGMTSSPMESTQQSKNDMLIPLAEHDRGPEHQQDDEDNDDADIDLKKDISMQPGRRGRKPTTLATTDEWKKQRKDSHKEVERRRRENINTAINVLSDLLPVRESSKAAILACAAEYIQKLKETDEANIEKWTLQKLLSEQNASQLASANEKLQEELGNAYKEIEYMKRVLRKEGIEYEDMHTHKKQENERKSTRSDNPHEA
# Setting: whole 60-bp probe, lowest competitor level
Sequence,fluorescence intensity [a.u.]
GAACAAGGTGCCCGTCACATGGCAGAAGGCTACGCC,376
TACGCCTGTACTACCCACGTTGCCCCAGAACGTCCC,78.4
TTATTGCTGTTAGGACCCGTGATGGGTTCGTAGATC,162
TAGCCCCAAAATCCACACGTGACGGAAATGATTTAG,4170
GTCTTGTCTCATTGTCACCGAACTTTCCCCACTTCA,94.5
CGTCCTAGTGATTGCCTGGTGGGTGCCATGAGGAAG,65.8
AAATTACTAAGTTGGTCCGTGGGTGACGCCGTATGA,65.6
AAAGCGGTAATTTGCGCGGTGGGTGCAGATATCTAT,72.4
CTTCTTCGTTACAGTGACGTGAGATGTTCAGCAGTC,80.2
TGCGCAACAACTTGATTCGTGGGTGTATGTCTAGAA,73.1
CGGGGTTAAGTTTGAAACGTGGGTGGCTTGCAGCAG,91.4
ACCTTTTGAATATATCATGTGTTTGTTCTGCTATCT,337
CATACCCAACCTTGATCAGTGGGTGAAGATATTTGT,69.8
TGCGTTCTATGCGAAAACGTGCTAATTTAATATATA,428
AGAATCAGGCATTCGCGTGTGACGGGCGTCATTCAT,68.4

# Study 5 — method: RNA Bind-n-Seq; molecule type: RNA; sample: in vitro; tested at: 365 nM; baseline: no-protein control; direction: higher = stronger binding
# Target: RNA binding protein fox-1 homolog 2, RRM domain, GST-SBP tag (RBFOX2, Homo sapiens, UniProt O43251-10, residues 100-194)
# Setting: natural RNA segment, single round, ends assumed
# Shared flanks, not repeated: GGGAGUUCUACAGUCCGACGAUC … UGGAAUUCUCGGGUGCCAA
# Residues (chain): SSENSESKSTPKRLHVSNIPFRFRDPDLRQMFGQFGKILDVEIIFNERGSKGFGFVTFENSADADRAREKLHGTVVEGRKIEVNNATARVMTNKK
Sequence,RBNS enrichment (R)
AUCUAUCAUAUAGAGCUAUAUGUAUGGAAAAUUUUGAUCAAUUUUUUAAGAAAUGUAUCCUGUUUGCAAAGGCACAGUAAAGUUGCAUCUUAUAGACUAUAGGCAAUAAA,0.484
AGACUAGAAGAGUCUUAAAUUAUAUGUGGGAGGAGGAGGGAUAGAACAUCACAACACUGCUCUAGUUUCUUGGAGAAUCACAUUUCUUUACAGGUUAAAGACAAACAAGA,0.413
UGCAUUAUGUGUCACAUUACUGGGCAAACUGUUCAAAUAUUUUUUUUAAACCUCCCUGUAUAGAAAAUAUCAUUAAGGAUGUAAAAGCCAUGCUUGCCUAUUUGCUGUAU,1.37
GCACUAUUGUCCCGGGGUUGACCCCUGGGGCAGUUCUUGGUGGGUUCUGCUGGGCAGAACACAUGGGUUAAAUCUGUGUAGAGAGUUUUCCUCAUCCUCCAUCCACAAGU,0.246
AUUUUUAAAGAUAACUCAGCAUGUUUGUAAAGCAGGAUACAUUUUACUAAAAGGUUCAUUGGUUCCAAUCACAGCUCAUAGGUAGAGCAAAGAAAGGGUGGAUGGAUUGA,6.17
UCUAGACCCCACCCUGGGUGUAUGUGAGUGUGCAAGGGAAGGUGUUGCAUCCCCAGGGGCUGCCGCAGAGGCCGGAGACCUCCUGGACUAGUUCGGCGAGGAGACUGGCC,2.47
GACCUGCUCUAGCGAGAGCUGAGCAUGUGUCCUCCACUAGAUGAGGCUGAGUCCAGCUGUUCUUUAAGAACAGCAGUUUCAGCUCUGACCAUUCUGAUUCCAGUGACACU,0.211
UUGUAAUAAGCAAUCAAGGUUAUAAUUUUUUUUAAAAUAGAAAUUUUGUAAGAAGGCAAUAUUAACCUAAUCACCAUGUAAGCACUCUGGAUGAUGGAUUCCACAAAACU,0.577
ACUGGCUUUGCACAGAAGUAUGCUCUACUUGCGUUGCUUUAGGGCAGGAUUCUAUUUUGAGGGAAAAGACAGUAUCCUUAUUACCUUUUGUUUGUUUAAUAGCACAAAUG,0.599
CCCGGGGCCCCAGGCUGUGUUAGGGUUCUCUGGGCCUCUUCUUUGUACCAGCAGCCCUGCAUACAGGGCCCUGUGAGCCCCCCUGCAGUCCUGUGAGGCCCCUGAAGCUC,0.382
CUGCUCAGCACCCCGCCUGGUGUGGGCCUGGUCUCAGCAGCGGCUGCGGCUGUGGCAGCCUCCAUCUCCAGCAAGUCUCCUGGCCUCUCCUCCUCAUCCUCUUCAUCCUC,1.18
CAUGAAAAAUAUGACUAACCUGUGGUGUGUCCAUUCUUCCUUAUAGGAAUUUCCUGAGUUUGCAGGAGACAUGAGAGCAGUUUUUAGCGAGUAUUUUAGUGGGAAGUUGC,0.377

# Some of these lines once more (study 3):
Sequence,6-mer enrichment (R)
GCAUCG,0.918
UAUAUG,0.713
GAGCGG,3.62
UGAAUC,0.629
CCGCCU,0.633
UGGCAA,0.869
CGACAU,0.623
GAAGCU,0.779
CACUGU,0.648
CAACAC,0.633
GCGUGU,1.59
ACUGCC,0.65
CUUGGG,1.78
GGCGAG,3.8
